Experimental data collected from several papers.
Each numbered part is a random draw from the data of one study; scales do not carry over between parts. “And” joins repeats or separate records; there may be more than shown.

Study 1 — effect on: enzyme activity; mode: inhibitor; tested at: 20 µM; setting: hit confirmation
Target: Replicase polyprotein 1ab, main protease (rep, Severe acute respiratory syndrome coronavirus 2, UniProt P0DTD1)
With `CC(C)(C)c1ccc(S(=O)(=O)/C=C/C#N)cc1` the inhibition was 98.9%.
With `CC1=C(CCC(=O)O)c2cc3[nH]c(cc4nc(cc5[nH]c(cc1n2)c(C)c5C(C)O)C(C)=C4C(C)O)c(C)c3CCC(=O)O` (stereo not shown) the inhibition was 27.1%.
`Nc1nc(=S)c2ncn(C3OC(CO)C(O)C3O)c2[nH]1` (stereo not shown) has an inhibition of 111%.
`CN(C)CCNc1nc2cc(O)ccc2c2c1C(=O)c1ccccc1-2` gave an inhibition of 97.5%.
For `CCCCCCCCCCCCCCSCC(=O)O`, the inhibition was -16.3%.
With `CC(C)C[C@@H](C=O)NC(=O)[C@H](CC(C)C)NC(=O)[C@H](CC(C)C)NC(=O)OCc1ccccc1` the inhibition was 98.8% and 78.6%.

Study 2 — technique: RNA Bind-n-Seq; molecule type: RNA; medium: in vitro; tested at: 365 nM; reference: no-protein control; direction: higher = stronger binding
Target: RNA binding protein fox-1 homolog 2, RRM domain, GST-SBP tag (RBFOX2, Homo sapiens, UniProt O43251-10, residues 100-194)
Setting: natural RNA segment, single round, ends assumed
Target sequence (chain): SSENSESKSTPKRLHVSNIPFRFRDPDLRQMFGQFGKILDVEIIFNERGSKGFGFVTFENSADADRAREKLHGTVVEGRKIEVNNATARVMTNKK
For `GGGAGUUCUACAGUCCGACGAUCGGGUUUUAGGUGUCUCUCUUUGUGUUUUCUGUGGUUUGUGAUGCACGUGCGCAGGAAGGGCUCCUCUUAGAGAAGCAGCCAAACUGUGAAGCACUAAGCUGACCCUGCUUUGGAAUUCUCGGGUGCCAA`, “RBNS enrichment (R)” read 0.867.
`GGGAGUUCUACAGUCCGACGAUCUUCCAAACCAGAUUUCCUGUGAUUCUAUACUAAUAAUUUUUGAUAUAACCCUUUGCUUCUUAUAAUGAGUGCGAUAUAUGUUGUCGAGGCUGUUCUUCAAGAAUUAAAAUUGGAAUUCUCGGGUGCCAA`: “RBNS enrichment (R)” 0.534.
`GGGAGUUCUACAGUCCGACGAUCAUGGUAGGCUGUAUAGUUUUUAGUCUGUGUAGUUAAUUUAAUUUGCAGUUUGUGCGGCAGAUUGCUCUGCCAAGAUACUUGAACACUGUGUUUUAUUGUGGUAAUUAUGUUGGAAUUCUCGGGUGCCAA` — result for “RBNS enrichment (R)”: 0.608.
`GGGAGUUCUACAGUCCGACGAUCUAUGAAUGAGAAUGGGUCUUGAAAAUAUGUGUGCACCCCUAAGCUUGAAAUUGAUCUCUAUACUCUAGCCCCUCAGCCAGCCUCCUUCCUGUUGUCUGAAACCUGGAGCUUGGAAUUCUCGGGUGCCAA` — result for “RBNS enrichment (R)”: 5.34.
`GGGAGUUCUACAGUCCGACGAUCCAGAAAUCCUCUGGGGCAUUUAACCAUCUGGCAGAAUUGUUGCUGCACCCUUAUCCCAGUUAUAAGACAGUCAAAAUGACUAUUUCCUAAAUAUUGUGAGUGUAUGAAAUUGGAAUUCUCGGGUGCCAA` — result for “RBNS enrichment (R)”: 0.313.
`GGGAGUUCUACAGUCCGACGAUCAUUGGGCCCAAUUCUAAGCUCAACCUAGUUGUUAAGCCUUUGGAGAAGGUGCUACUGGAAGAAGGGUCUGCCCACAGACUGGUCGACUCCCCAGCCACCCCCAUCUGGCAUGGAAUUCUCGGGUGCCAA` — result for “RBNS enrichment (R)”: 0.421.
Under “RBNS enrichment (R)”, `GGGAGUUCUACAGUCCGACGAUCUGUAGUCCACAUUUUAACACUCAGCAAACAUUCACACAUUCUAAGUUCAACAGGGCUCUUUGAUGACAGCUUUGGGAGGAUAAAUACGACUACGCACUUUAGAUAAGCCUUGGAAUUCUCGGGUGCCAA` is recorded as 0.539.
`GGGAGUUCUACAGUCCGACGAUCAGACAGGAUUCAGGGCAGUGCUCCGAAGCUGUGUGCUCACCUGGUUGGCUCAUCAAACCUGGCAACCCUGUGGCCUGUCUGCCGGAGCUGACUGGAUCCACUCAUCAAUUUGGAAUUCUCGGGUGCCAA` — result for “RBNS enrichment (R)”: 0.219.

Study 3 — mode: inhibitor; tested at: 20 µM
Target: Replicase polyprotein 1ab, nsp13 helicase (rep, Severe acute respiratory syndrome coronavirus 2, UniProt P0DTD1)
`COc1ccc(-c2nc(C(=O)N3CCN(C)CC3)sc2-c2ccc(OC)cc2)cc1` has an inhibition of -2.4%.
The inhibition of `CC(OC(=O)OC1CCCCC1)OC(=O)C1=C(CSc2nnnn2CCN(C)C)CS[C@@H]2[C@H](NC(=O)Cc3csc(N)n3)C(=O)N12` (stereo partly shown) is reported as 4.07%.
`COc1ccc(CN(CCN(C)C)c2ncccn2)cc1` has an inhibition of 1.27%.
The inhibition of `CCCCCCCCCCCCCCCC(=O)OCCC1CCN(CCCN2c3ccccc3Sc3ccc(S(=O)(=O)N(C)C)cc32)CC1` is reported as 3.23%.
`CNCCC=C1c2ccccc2C=Cc2ccccc21` has an inhibition of 0.03%.
`CC(C)(Oc1ccc(Cl)cc1)C(=O)O` gave an inhibition of 6.03%.
`COc1cccc(CCc2ccccc2OCC[C@@H]2C[C@@H](O)CN2C)c1` gave an inhibition of -2.02%.
`C[C@@H](O)[C@H]1C(=O)N2C(C(=O)O)=C(S[C@@H]3CN[C@H](CNS(N)(=O)=O)C3)[C@H](C)[C@H]12` has an inhibition of 4.98%.
With `OCCCNc1ccccc1` the inhibition was -0.53%.
`O=C(O)c1ccc(NC(=O)[C@H](Cc2ccc(O)cc2)NC(=O)c2ccccc2)cc1` has an inhibition of 9.11%.
The inhibition of `N#C[C@@H]1C[C@@H]2C[C@@H]2N1C(=O)[C@@H](N)C12CC3CC(CC(O)(C3)C1)C2` is reported as 9.63%.
The inhibition of `O=C(Nc1ccc(S(=O)(=O)Nc2ccccc2Cl)c(Cl)c1)c1ccccn1` is reported as 8.02%.
With `CC(=O)c1ccc2c(c1)N(CCCN1CCN(CCO)CC1)c1ccccc1S2` the inhibition was 18.2%.
The inhibition of `CC[C@H](C(=O)N1CCCC[C@H]1C(=O)O[C@H](CCc1ccc(OC)c(OC)c1)c1cccc(OCC(=O)NCCNC(=O)COc2cccc([C@@H](CCc3ccc(OC)c(OC)c3)OC(=O)[C@@H]3CCCCN3C(=O)[C@@H](CC)c3cc(OC)c(OC)c(OC)c3)c2)c1)c1cc(OC)c(OC)c(OC)c1` is reported as 6.93%.
`CC(=O)N[C@H](Cc1ccc2ccccc2c1)C(=O)N[C@H](Cc1ccc(Cl)cc1)C(=O)N[C@H](Cc1cccnc1)C(=O)N[C@@H](CO)C(=O)N[C@@H](Cc1ccc(NC(=O)[C@@H]2CC(=O)NC(=O)N2)cc1)C(=O)N[C@H](Cc1ccc(NC(N)=O)cc1)C(=O)N[C@@H](CC(C)C)C(=O)N[C@@H](CCCCNC(C)C)C(=O)N1CCC[C@H]1C(=O)N[C@H](C)C(N)=O` gave an inhibition of 51.7%.
For `COC(=O)N[C@H](C(=O)N1CCC[C@H]1c1ncc(-c2ccc(-c3ccc(-c4cnc([C@@H]5CCCN5C(=O)[C@@H](NC(=O)OC)C(C)C)[nH]4)cc3)cc2)[nH]1)C(C)C`, the inhibition was 3.21%.
`O=C(O)c1ccc(N2C(=O)/C(=C\c3ccc(-c4ccc([N+](=O)[O-])cc4)o3)C=C2c2ccccc2)cc1` gave an inhibition of 70.5%.
For `O=C(/C=C\n1cnc(-c2cc(C(F)(F)F)cc(C(F)(F)F)c2)n1)N1CC(F)(F)C1`, the inhibition was 3.84%.
With `CNCC[C@@H](Oc1ccccc1C)c1ccccc1` the inhibition was 2.95%.
`Clc1ccc(C(Cn2ccnc2)OCc2ccsc2Cl)c(Cl)c1` (stereo not shown) gave an inhibition of -1.32%.
The inhibition of `CN1CCN(c2cccc3[nH]c(=O)oc23)CC1` is reported as 12.7%.
`COc1cc2c(Nc3ccc(Cl)c(Cl)c3F)ncnc2cc1OC[C@@H]1C[C@@H]2CN(C)C[C@@H]2C1` has an inhibition of 10.3%.
The inhibition of `CC(C)(C)c1ccc(/C=C/C(=O)Nc2ccc3c(c2)OCCO3)cc1` is reported as -3.48%.
The inhibition of `CC[C@H](C)[C@H](NC(=O)[C@H](Cc1ccc(O)cc1)NC(=O)[C@@H](NC(=O)[C@H](CCCNC(=N)N)NC(=O)[C@@H](N)CC(=O)O)C(C)C)C(=O)N[C@@H](Cc1c[nH]cn1)C(=O)N1CCC[C@H]1C(=O)O` is reported as 1.68%.

Study 4 — cell line: HEK-293T; effect on: pseudovirus infection; technique: FDA-approved drug library screen; organism: VSV pseudotyped with SARS-CoV-2 spike; tested at: 10 µM; time: 16 h; reference: vehicle-treated
`OC[C@H]1O[C@@H](O[C@@H]2[C@@H](CO)OC(O)(CO)[C@H]2O)[C@H](O)[C@@H](O)[C@H]1O` (mixture of isomers) gave a GFP-positive cells of 89.2%.
`NC[C@@H]1O[C@H](O[C@H]2[C@@H](O)[C@H](O[C@@H]3[C@@H](O)[C@H](N)C[C@H](N)[C@H]3O[C@H]3O[C@H](CO)[C@@H](O)[C@H](O)[C@H]3N)O[C@@H]2CO)[C@H](N)[C@@H](O)[C@@H]1O` has a GFP-positive cells of 85.3%.
`N[C@@H](CC(=O)N1CCn2c(nnc2C(F)(F)F)C1)Cc1cc(F)c(F)cc1F` gave a GFP-positive cells of 110%.
`CCCCCOC(=O)Nc1nc(=O)n([C@@H]2O[C@H](C)[C@@H](O)[C@H]2O)cc1F` gave a GFP-positive cells of 85.3%.
`CCCCOc1ccc(OCCCN2CCOCC2)cc1` has a GFP-positive cells of 66.6%.
`O=S(=O)(O)CCS` has a GFP-positive cells of 106%.

Study 5 — technique: RNA Bind-n-Seq; molecule type: RNA; medium: in vitro; tested at: not given; reference: input RNA pool; direction: higher = stronger binding
Target: RING finger protein unkempt homolog, zinc fingers 1-6, GST-SBP tag (UNK, Homo sapiens, UniProt Q9C0B0, residues 30-357)
Setting: RNA with constant flanks, human and mouse sites, ends assumed
Target sequence (chain): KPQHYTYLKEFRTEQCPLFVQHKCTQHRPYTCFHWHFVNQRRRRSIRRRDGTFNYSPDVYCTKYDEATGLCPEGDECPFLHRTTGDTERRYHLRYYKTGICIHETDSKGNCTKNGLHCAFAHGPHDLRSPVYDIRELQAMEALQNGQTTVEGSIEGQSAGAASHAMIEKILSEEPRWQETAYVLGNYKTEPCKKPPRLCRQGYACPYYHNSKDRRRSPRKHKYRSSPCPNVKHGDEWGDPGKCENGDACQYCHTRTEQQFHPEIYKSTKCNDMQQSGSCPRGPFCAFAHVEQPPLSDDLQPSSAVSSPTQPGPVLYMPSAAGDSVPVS
The bound/input enrichment of `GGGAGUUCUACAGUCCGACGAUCGUAUUGAACUUCACAGCCUUGCUCAUUGAGUACAGCUUUUCUCGGCAUCUGUACAGUUCCAUAGAGCAUUUGACAACUUUAUUGGCUUCCUCUGAUAUGCAAGUGGUGCUGGCAGUCCUUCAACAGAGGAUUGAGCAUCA` is reported as 0.455 ratio.
The bound/input enrichment of `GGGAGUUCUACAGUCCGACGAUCGCACUGUUUUCUGAUGAUGAUGAUGAUGAUGAAGAAGAAGAUGCAGUGAAUCUUGAACCAUUUAUUUCUGCAUUCCGUGAGGCUGAAAAAAUUGCCAAGGAACUAAAACGCAAACCUGGCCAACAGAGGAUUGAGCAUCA` is reported as 0.203 ratio.
The bound/input enrichment of `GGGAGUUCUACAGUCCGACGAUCAACAGAAGAAAAGUAAUGGACUCUGAUGAAGAUGACGAUUAUUGAACUACAAGUGCUCACAGACUAGAACUUAACGGAACAAGUCUAGGACAGAAGUUAAGAUCUGAUUAUUUACUUUGUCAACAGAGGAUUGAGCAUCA` is reported as 0.0624 ratio.
`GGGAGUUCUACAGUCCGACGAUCCCAAAACAUGUGAUAUCCCUUUAACCUGUGCACAGUCUGGAGGCAGUUUUAUUGAGUGAGUAGUUGAGUGAGAGAACAAAAUGCCCAGCAAAACUUCUGGCCUCCACAGUUUGCUGAUGCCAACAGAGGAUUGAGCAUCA` has a bound/input enrichment of 0.17 ratio.
`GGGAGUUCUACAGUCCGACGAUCGACUCUCAUGUCAUUUGUAUACCUGUGGAUCUGCCCUGUAUUGUUAAUUCUAUUUUACAAAAUAGAGGAAGUGUCUAAUAUAUGUGCAUAGUCAGUUGUCCUUUUUGAAAAAUAGGUUGACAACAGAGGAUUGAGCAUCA` gave a bound/input enrichment of 0.193 ratio.
With `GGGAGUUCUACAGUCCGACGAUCGAUGUUGGUUGACCAUAAUUUGCAACAUUGUCUCAUUAAAAAUAAACUUUCAUAUUCAUAUUUGGUAGAACUGUUAACCUAGAAAUGUAGCUUGCUAAUAAGAUAGAAUGAUACAAAAGUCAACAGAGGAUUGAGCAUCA` the bound/input enrichment was 9.12 ratio.
`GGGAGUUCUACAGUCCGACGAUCGAAGCUAUUGGAAAGAAUAACCCUCCCCUGAAGUCCCGGAGCUUCUCGCUGGCAUCUAGUGGUAAUUCUCCCAUAUCCCAGCGGAGACCAAGUCAGAAUGCCAUGUCUUUUUUUAAUGUUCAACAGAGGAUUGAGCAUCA` has a bound/input enrichment of 0.634 ratio.
With `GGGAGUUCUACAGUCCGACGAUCGGAAGGUAAGCCAGCAGGUGGUACCUUGUAGAUUGGUUCUCUUGAAGGCUGCUCUUGACAUCCCAGGGCACUGGCUUCUUCCUCCCUCCCCGCAAGGUGGGAGGUCCUGAGCGAGGUGUUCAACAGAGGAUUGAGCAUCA` the bound/input enrichment was 0.0395 ratio.

Repeated from above (study 1):
With `CC(C)(C)c1ccc(S(=O)(=O)/C=C/C#N)cc1` the inhibition was 98.9%.
With `CC1=C(CCC(=O)O)c2cc3[nH]c(cc4nc(cc5[nH]c(cc1n2)c(C)c5C(C)O)C(C)=C4C(C)O)c(C)c3CCC(=O)O` (stereo not shown) the inhibition was 27.1%.
`Nc1nc(=S)c2ncn(C3OC(CO)C(O)C3O)c2[nH]1` (stereo not shown) has an inhibition of 111%.
`CN(C)CCNc1nc2cc(O)ccc2c2c1C(=O)c1ccccc1-2` gave an inhibition of 97.5%.
